Experimental data from different studies.
Each line is one published result; not all experiments were run side by side. Several values in a cell are separate wells, animals, samples, runs or records. ± gives the spread as reported. Converted amounts (≈) assume the structure as drawn.
GBA1 R534H: Lysosomal acid glucosylceramidase (GBA1, Homo sapiens, UniProt P04062, R534H)
UniProt P04062, sequence (whole entry, unmodified, looked up): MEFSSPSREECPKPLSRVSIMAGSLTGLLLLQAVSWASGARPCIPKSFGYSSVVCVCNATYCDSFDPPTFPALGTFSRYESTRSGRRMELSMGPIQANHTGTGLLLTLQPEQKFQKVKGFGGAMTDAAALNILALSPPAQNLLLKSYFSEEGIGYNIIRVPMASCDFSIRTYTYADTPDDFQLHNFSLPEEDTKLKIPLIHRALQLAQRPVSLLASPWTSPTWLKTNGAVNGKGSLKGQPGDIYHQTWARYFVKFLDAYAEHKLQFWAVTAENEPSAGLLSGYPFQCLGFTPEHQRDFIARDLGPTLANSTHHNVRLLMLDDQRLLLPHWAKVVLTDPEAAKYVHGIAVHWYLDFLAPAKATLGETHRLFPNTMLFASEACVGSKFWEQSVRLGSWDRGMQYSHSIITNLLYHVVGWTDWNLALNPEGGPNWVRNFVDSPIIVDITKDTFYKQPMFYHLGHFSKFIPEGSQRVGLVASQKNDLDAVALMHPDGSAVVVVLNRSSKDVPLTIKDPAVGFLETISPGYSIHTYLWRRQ

SMILES	tested on	assay	system	setting	scale	measurement	value
Cc1ccc(-n2cc(CSc3nc4ccccc4n3Cc3cn(-c4ccc(C)cc4)nn3)nn2)cc1	MDA-MB-231	MTT		31.3 ppm		cytotoxicity	85.2%
CC(C)Cc1ccc(C(C)C(=O)[Se]CC(=O)Nc2cccc(C(F)(F)F)c2)cc1 (stereo not shown)	NCI60 CNS cancer panel	five-dose screen				GI50	1870 nM
CN1CCCNC(=O)c2cccc(c2)C(=O)NCCCN(C)CCCNc2cccc3c2C(=O)c2cccc(c2C3=O)NCCC1	SAS	RNA-Seq, item: BUD31 mRNA		1 µM, 6 h	relative to: untreated cells	log2 fold change	-0.414
Cc1cc(NC2CCN(C)CC2)ccc1-c1cc2c(N3CCC[C@H](C(=O)N[C@H](C)c4ccccc4)C3)ncnc2[nH]1	KARPAS-299	cell growth or viability, MTT		5 µg/mL, 72 h		inhibition	88.6%
CCOc1cncc(-c2ccc(NC(=O)C3(c4ccnc(NS(=O)(=O)C5CC5)n4)CCOCC3)nc2)n1	lung cancer	cell viability, CellTiter-Glo	DMSO 0.1%	72 h, line code 1121		IC50	40 nM
CCCCCCc1cccc([C@H](O)C[C@H](CO)NC(=O)CCCCCCCCCCBr)c1	HeLa	CERT activity, HPLC-MS/MS lipidomics, item: ceramide 20		1 µM, 24 h, not cell-number normalised		ceramide level	107 pmol/sample and 121 pmol/sample and 116 pmol/sample
COc1c(C)c(OC(=O)c2ccccc2)c(C)c(OC(=O)c2ccccc2)c1C(=O)/C=C/c1ccccc1	FaDu	SRB			relative to: normal over FaDu IC50	selectivity index	1.03
COC(=O)c1cc(NC2=NC(=O)C(=Cc3ccc(N(C)C)cc3)S2)ccc1OC(C)=O	MCF7	GC-MS, item: Glyceric acid		1 µM	relative to: DMSO	metabolite level	0.36 fold change
CCn1nc(Cl)c2c1-c1cnc(N)c(c1)O[C@H](C)c1cc(F)ccc1-c1nn(C)cc1C2	Ba/F3 EML4-ALK variant 1 S1206Y	cell viability				Emax	99.8%
CCCCCCC(=O)[O][Pt]([NH2])([NH2])([Cl])([Cl])[O]C(=O)CCC(C)C1CCC2C3CCC4CC(O)CCC4(C)C3CCC12C (stereo not shown)	PC-3	JC-1 flow cytometry		2 µM, 48 h		cells with depolarised mitochondria	63.9%
COc1cccc(O)c1C(=O)/C=C/c1ccc2cc(N3CCCC3)ccc2c1	HK-2			concentration not given, with: cisplatin		MDA level	decreased
COc1cc(N2CCN(C(=O)C3CCCN3)CC2)ccc1Nc1ncc(Cl)c(Nc2ccccc2P(C)(C)=O)n1 (stereo not shown)	Ba/F3 EML4-ALK	flow cytometry		concentration not given, 6 h		late apoptotic cells	10.2% and 9.05% and 9.9%
C=CC(=O)N1[C@H](c2ccc3c(c2)OCO3)c2[nH]c3ccccc3c2C[C@@H]1C(=O)NC1CC1	rat DRG neurons			30 µM, 48 h, with: vincristine 40 nM		mean neuron degeneration	20.6%
CN(C)c1ccc(-n2cc(COC(=O)[C@@]3(C)C=C(C(=O)OC(C)(C)C)C(=O)CC3)nn2)cc1	HeLa	quantitative western blot		concentration not given, 4 (unit not given), with: EGF		pRSK/tubulin ratio	0.171
Nc1cc2cccnc2c2ncccc12.[Cl-].[Cl-].[Ru+2].c1cnc2c(c1)ccc1cccnc12.c1cnc2c(c1)ccc1cccnc12	PC-3			10 µM, 30 min irradiation	relative to: untreated irradiated cells	trypsin resistance	140 ± 5.1%
COC(=O)c1cc(NC2=NC(=O)C(=Cc3ccc(C)cc3)S2)ccc1OC(C)=O	MCF7	GC-MS, item: L-Aspartic acid		1 µM	relative to: DMSO	metabolite level	0.27 fold change
[Cl-].[Cl-].[Ru+2].c1ccc(-c2ccccn2)nc1.c1ccc(-c2ccccn2)nc1.c1ccc2cc3nc4c5cccnc5c5ncccc5c4nc3cc2c1	SK-MEL-28	cell growth, SRB		dark, normoxia		TGI	57300 nM
CNS(=O)(=O)Nc1nccc(Cc2c(C)c3ccc(Oc4ncccc4F)cc3oc2=O)c1F	SU.86.86	cell viability		7 days		IC50	> 1000 nM
C=CC(=O)N1CCCC(n2c(=O)c3ncccc3n(Cc3ccc(Oc4ccccc4)cc3)c2=O)C1 (stereo not shown)	Rec1	item: ZNF710-AS1		concentration not given	relative to: untreated	log2 fold change	0.366
Cn1ncc2cc(-c3cncc(Cl)c3N3CCC4(CCNC4=O)CC3)ccc21	LS174T	microarray, item: PTGS2		concentration not given, 4 h, gene set COX-2	relative to: untreated cells	fold change in expression	-1.23

SMILES	tested on	assay	system	setting	scale	measurement	value
CCC(CC)n1c(Cc2cccs2)nc2cc(C(=O)N[C@@H](CC(=O)O)c3ccccc3)ccc21	H9c2			concentration not given, 48 h, with: ISO and MCM		LDH release	decreased
CCc1c(C)c2ccc(OC(C)C)c(C)c2oc1=O	PC-3	cell growth or viability, MTT		62.5 µg/mL		viability	14.5%
COc1cccc(OC)c1-c1cc(C(=O)NC2(C(=O)O)C3CC4CC(C3)CC2C4)nn1-c1ccc(C(=O)N(C)CCOCCOCCN(C)C(=O)[C@H](CCCCNC(=O)[C@H](CC(C)C)NC(=O)C2OC2C(=O)O)NC(=O)CN2CCN(CC(=O)[O-])CCN(CC(=O)[O-])CCN(CC(=O)[O-])CC2)cc1C(C)C.[177Lu+3] (mixture of isomers)	HT-29			concentration not given, 240 min	relative to: added activity	surface-bound fraction	0.71 ± 0.05%
CC(C)c1ccc(N(C)c2ccc3c(c2)OCC[C@H]3CNc2cnccc2C(=O)O)cc1	KYSE-70	cell viability, CellTiter-Glo		7 days		IC50	≥ 10000 nM
COc1ccc(N(CC2CC2)S(=O)(=O)C2CC3OC2C(c2ccc(O)cc2)=C3c2ccc(O)cc2)cc1 (stereo not shown)	MCF7 3xERE-luc, steroid-deprived	ERE luciferase reporter, agonist			relative to: vehicle	Emax	-7%
CCN(CC)CC(=O)Nc1cccc(-n2cc(-c3ccc4ccc(-c5cn(-c6cccc(NC(=O)CN(CC)CC)c6)nn5)cc4c3)nn2)c1	RCC4	PCR angiogenesis array, item: IL6		5 x IC50, 6 h, normoxia	relative to: untreated	fold regulation	-2
COC(=O)[C@@]1(C)C=C(C(=O)Nc2cccc(C(=O)Nc3ccc(Nc4nccc(-c5cccnc5)n4)c(C)c3)c2)C(=O)CC1	HEK293 AP1 reporter cells	AP-1 reporter gene, inhibitor		3 µM, 6 h, unit not given, with: PMA	relative to: PMA alone	reporter activity	0.179 and 0.188
Cc1ncsc1-c1ccc(C(C)NC(=O)C2CC(O)CN2C(=O)C(NC(=O)CCCCCCCCCCN2CCCC(Nc3ncc(Cl)c(Nc4ccccc4S(=O)(=O)C(C)C)n3)C2)C(C)(C)C)cc1 (stereo not shown)	22Rv1	RNA-seq, item: ZNF133 mRNA		concentration not given	relative to: DMSO	log2 fold change	-1.62
O=C(C[Se]C(=O)c1cccnc1Nc1cccc(C(F)(F)F)c1)Nc1cccc(C(F)(F)F)c1	NCI60 CNS cancer panel	five-dose screen				GI50	1820 nM
C=C1C(=O)OC2C1CCC(C)(O)C13C=CC(C)(C21)C1(C3)C(=O)OC2C3C(C)=CC(=O)C3C(C)CC(OC(C)=O)C21 (stereo not shown)	AML12 mouse hepatocytes	lipid accumulation, Nile Red staining		maximum safe concentration, 24 h, with: palmitic acid/oleic acid		maximum inhibition	71.4 ± 5.23%
OC[C@H]1[C@@H](O)[C@H](O)[C@@H](O)CN1CCCCCOCc1ccc(-c2ccccc2)cc1F	GBA1 R534H	inhibitor, 4MU-β-D-glucopyranoside		with: 4MU-β-D-glucopyranoside		IC50	8000 nM
C=C1C(=O)OC2C1CCC(C)(O)C13C=CC(C)(C21)C1(C3)C(=O)OC2C3C(C)C(=O)CC3C(=C)CC(OC(C)=O)C21 (stereo not shown)	AML12	Western blot, item: ACLY, ACC, FASN, SCD1		concentration not given, with: palmitate/oleate		protein level	decreased
Cc1cc(Cl)cc(-c2ccnc3cc(CN4C(=O)C5C(C4=O)C5(C)C)sc23)c1C[C@@H]1CNCCO1 (stereo partly shown)	CHP-212 parental (wild-type USP7)	annexin V-PI flow cytometry		0.1 µM, 48 h		apoptotic cells (early plus late)	18.7% and 14.1% and 19.6%
CC1(C)CC(=O)C2=C(C1)Oc1ccc3ccccc3c1C2c1c[nH]c2ccccc12 (stereo not shown)	3T3-L1	cell growth or viability, MTT		72 h		IC20	106 µg/mL (≈ 270 µM)
CC(=O)c1cccc(CN2CCCC(CCC(=O)NCc3ccc(F)c(F)c3)C2)c1 (stereo not shown)	Trypanosoma cruzi	reporter mRNA translation, inhibitor, item: capped polyadenylated Renilla luciferase mRNA	cell-free extract	concentration not given	relative to: control RNA	relative translation	110%
COc1cc([C@@H]2O[C@@H](c3cc(OC)c(O[C@@H]4O[C@H](CO)[C@@H](O)[C@H](O)[C@H]4O)c(OC)c3)[C@H](CO)[C@H]2CO)cc(OC)c1O	3T3-L1	lipid accumulation, inhibitor, Oil Red O staining		maturation stage		lowest effective concentration	20 µM
CO[C@@H]1[C@@H](OC(N)=O)[C@@H](O)[C@H](Oc2ccc3c(O)c(NC(=O)c4ccc(O)c(CC=C(C)C)c4)c(=O)oc3c2C)OC1(C)C	HCT-116 BRCA2-/-			150 µM, replicate 1		colony count	14
Nc1nc2nn[nH]c2c(=O)[nH]1	Trypanosoma cruzi	reporter mRNA translation, inhibitor, item: capped polyadenylated Renilla luciferase mRNA	cell-free extract	concentration not given	relative to: control RNA	relative translation	93.3%
OC[C@@H]1[C@@H](O)[C@H](O)[C@@H](O)CN1CCCCCOCc1ccc(-c2ccccc2F)cc1	GBA1 R534H	inhibitor, 4MU-β-D-glucopyranoside		with: 4MU-β-D-glucopyranoside		IC50	600 nM
COc1ccccc1-c1ccncc1C(=O)Nc1nnc(OCc2ccc(Cl)cc2)s1	PEO1 BRCA2-mutant			1.00 µM, with: olaparib 0.5 µM		colony survival	0%

For quick reference, copied from above:
SMILES	tested on	assay	system	setting	scale	measurement	value
CN(C)c1ccc(-n2cc(COC(=O)[C@@]3(C)C=C(C(=O)OC(C)(C)C)C(=O)CC3)nn2)cc1	HeLa	quantitative western blot		concentration not given, 4 (unit not given), with: EGF		pRSK/tubulin ratio	0.171
CC(C)c1ccc(N(C)c2ccc3c(c2)OCC[C@H]3CNc2cnccc2C(=O)O)cc1	KYSE-70	cell viability, CellTiter-Glo		7 days		IC50	≥ 10000 nM
COc1cccc(OC)c1-c1cc(C(=O)NC2(C(=O)O)C3CC4CC(C3)CC2C4)nn1-c1ccc(C(=O)N(C)CCOCCOCCN(C)C(=O)[C@H](CCCCNC(=O)[C@H](CC(C)C)NC(=O)C2OC2C(=O)O)NC(=O)CN2CCN(CC(=O)[O-])CCN(CC(=O)[O-])CCN(CC(=O)[O-])CC2)cc1C(C)C.[177Lu+3] (mixture of isomers)	HT-29			concentration not given, 240 min	relative to: added activity	surface-bound fraction	0.71 ± 0.05%
COc1cc([C@@H]2O[C@@H](c3cc(OC)c(O[C@@H]4O[C@H](CO)[C@@H](O)[C@H](O)[C@H]4O)c(OC)c3)[C@H](CO)[C@H]2CO)cc(OC)c1O	3T3-L1	lipid accumulation, inhibitor, Oil Red O staining		maturation stage		lowest effective concentration	20 µM
CO[C@@H]1[C@@H](OC(N)=O)[C@@H](O)[C@H](Oc2ccc3c(O)c(NC(=O)c4ccc(O)c(CC=C(C)C)c4)c(=O)oc3c2C)OC1(C)C	HCT-116 BRCA2-/-			150 µM, replicate 1		colony count	14
COc1cccc(O)c1C(=O)/C=C/c1ccc2cc(N3CCCC3)ccc2c1	HK-2			concentration not given, with: cisplatin		MDA level	decreased
CCc1c(C)c2ccc(OC(C)C)c(C)c2oc1=O	PC-3	cell growth or viability, MTT		62.5 µg/mL		viability	14.5%
